# Assay results from different studies.
# Each numbered part is a random draw from the data of one study; scales do not carry over between parts.
# UniProt P16220, sequence (whole entry, looked up): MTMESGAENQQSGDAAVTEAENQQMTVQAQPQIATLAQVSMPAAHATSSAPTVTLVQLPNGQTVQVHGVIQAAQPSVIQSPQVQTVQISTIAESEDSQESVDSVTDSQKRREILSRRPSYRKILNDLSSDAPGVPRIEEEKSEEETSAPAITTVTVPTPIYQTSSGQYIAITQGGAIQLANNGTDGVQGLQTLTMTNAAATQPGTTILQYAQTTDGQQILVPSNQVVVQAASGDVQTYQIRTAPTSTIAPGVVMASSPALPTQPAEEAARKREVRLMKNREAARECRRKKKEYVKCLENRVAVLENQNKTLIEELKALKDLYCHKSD
# UniProt Q13761, sequence (53-186, looked up): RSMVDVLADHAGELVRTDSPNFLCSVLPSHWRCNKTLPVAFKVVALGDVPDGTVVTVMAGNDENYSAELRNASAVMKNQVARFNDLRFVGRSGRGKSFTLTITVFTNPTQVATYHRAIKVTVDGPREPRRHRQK
# UniProt P10914, sequence (1-114, looked up): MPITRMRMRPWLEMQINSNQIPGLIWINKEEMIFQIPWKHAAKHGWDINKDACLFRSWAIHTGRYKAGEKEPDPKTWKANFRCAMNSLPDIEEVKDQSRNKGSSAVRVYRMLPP
# UniProt Q9WVH4, sequence (31-263, looked up): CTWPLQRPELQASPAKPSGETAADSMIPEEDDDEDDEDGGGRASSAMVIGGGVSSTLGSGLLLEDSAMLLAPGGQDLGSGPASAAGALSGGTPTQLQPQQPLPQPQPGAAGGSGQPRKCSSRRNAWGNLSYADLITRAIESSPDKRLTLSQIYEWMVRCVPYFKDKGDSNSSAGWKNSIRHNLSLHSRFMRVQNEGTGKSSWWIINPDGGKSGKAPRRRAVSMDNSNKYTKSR

# Set 1 — cell line: HEK-293T; read-out: pseudovirus infection; method: FDA-approved drug library screen; organism: VSV pseudotyped with SARS-CoV-2 spike; tested at: 10 µM; time: 16 h; relative to: vehicle-treated
SMILES,GFP-positive cells [%]
COC(=O)C1=C(C)NC(C)=C(C(=O)OCCN(C)Cc2ccccc2)C1c1cccc([N+](=O)[O-])c1 (stereo not drawn),40.6
O=C1C(CC[S+]([O-])c2ccccc2)C(=O)N(c2ccccc2)N1c1ccccc1 (stereo not drawn),105
COc1cc(NC(C)CCCN)c2ncccc2c1 (stereo not drawn),51.9

# Set 2 — method: RNAcompete; molecule type: RNA; sample: in vitro; tested at: 20 nM; setting: 7-mer, probes averaged, single round; relative to: mean of 7-mers; direction: higher = stronger binding
# Target: PABPC1L2, full length, GST fusion (mouse, UniProt A0ABA7IW68)
# Construct (chain): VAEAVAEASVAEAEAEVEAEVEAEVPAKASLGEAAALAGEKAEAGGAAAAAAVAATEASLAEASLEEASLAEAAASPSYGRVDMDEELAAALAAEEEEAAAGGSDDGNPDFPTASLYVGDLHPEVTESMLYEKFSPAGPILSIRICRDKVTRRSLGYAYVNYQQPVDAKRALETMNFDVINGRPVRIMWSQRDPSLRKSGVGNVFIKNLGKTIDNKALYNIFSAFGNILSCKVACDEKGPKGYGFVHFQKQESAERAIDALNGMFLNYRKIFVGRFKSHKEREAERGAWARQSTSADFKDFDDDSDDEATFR
Sequence,7-mer Z-score
AGUCAAA,0.445
AGCUAAA,0.871
UCGCGCG,-0.338
AAGAUGU,0.0986
GUUCCCC,-0.474
UUUUGUA,-0.173
AUAACCA,0.0207
CGAAUAG,-0.171

# Set 3 — read-out: enzyme activity; action: inhibitor; tested at: 20 µM; setting: primary screen
# Target: Replicase polyprotein 1ab, main protease (rep, Severe acute respiratory syndrome coronavirus 2, UniProt P0DTD1)
SMILES,inhibition [%]
CC1(C)CC[C@]2(C(=O)O)CC[C@]3(C)[C@H](C(=O)C=C4[C@@]5(C)C=C(C#N)C(=O)C(C)(C)[C@@H]5CC[C@]43C)[C@@H]2C1,28.5
COC(=O)[C@H](CCSC)NC(=O)c1ccc(NC[C@@H](N)CS)cc1-c1ccccc1,57.8
COc1ccc2[nH]c3c(S)ncnc3c2c1,69.9

# Set 4 — action: inhibitor; tested at: 20 µM
# Target: Replicase polyprotein 1ab, nsp13 helicase (rep, Severe acute respiratory syndrome coronavirus 2, UniProt P0DTD1)
Compound,inhibition [%]
CNCC(=O)O,-2.44
CC(C)NCC(O)c1ccc([N+](=O)[O-])cc1 (stereo not drawn),-1.72
O=[N+]([O-])c1ncc[nH]1,17.9
CCCCN1CCCCC1C(=O)Nc1c(C)cccc1C (stereo not drawn),6.06
Cc1cc(C)cc(C(=O)N(C)[C@H](Cc2ccc(-c3ccccc3)cc2)C(=O)N[C@@H](Cc2c[nH]c3ccccc23)C(=O)O)c1,37.4
Cc1ccc(-c2cc(C(F)(F)F)nn2-c2ccc(S(N)(=O)=O)cc2)cc1,10.9
CCCOC(=O)c1ccc(O)cc1,12
CCCCCCCCCCCCCCCC=O,0.73
CC(C)(Oc1ccc(Cl)cc1)C(=O)N1CSCC1C(=O)O (stereo not drawn),-1.24
CO/N=C(\N)c1ccc(-c2ccc(-c3ccc(/C(N)=N/OC)cc3)o2)cc1,5.23
OC(CCCN1CCCCC1)(c1ccccc1)c1ccccc1,6.35
Cn1cc(-c2ccc(S(=O)(=O)n3ccc(/C=C/C(=O)Nc4ccccc4N)c3)cc2)cn1,7.88
CCCn1c(=O)c2[nH]c(C34C[C@@H]5CC3C[C@@H](C5)C4)nc2n(CCC)c1=O,-0.81
O=C(NCCO)c1cc(C(=O)NCCO)cc(C(=O)NCCO)c1,-3.24
COc1ccc(CN2CCNCC2)c(OC)c1OC,3.54
NCCc1c[nH]c2ccc(C(N)=O)cc12,5.69
CSCC[C@H](NC(=O)[C@H](CC(C)C)NC(=O)CNC(=O)[C@H](Cc1ccccc1)NC(=O)[C@H](Cc1ccccc1)NC(=O)[C@H](CCC(N)=O)NC(=O)[C@H](CCC(N)=O)NC(=O)[C@@H]1CCCN1C(=O)[C@H](CCCCN)NC(=O)[C@@H]1CCCN1C(=O)[C@@H](N)CCCN=C(N)N)C(N)=O,7.28
NC(Cc1ccc(O)cc1)C(=O)O (racemic),2.1
CCCNCC(O)COc1ccccc1C(=O)CCc1ccccc1 (stereo not drawn),21.6
CC(C)CC(N)=O,-5.84
CS(=O)(=O)c1ccc(-c2cnc(NCc3ccco3)n3cnnc23)cc1,13.6
O=C(Cc1ccc(-c2ccccc2)cc1)Nc1ccccn1,4.48
CCOC(=O)CSCCC1NC(C(=O)O)CS1 (stereo not drawn),-3.12
Nc1nc2c(ncn2COCCO)c(=O)[nH]1,-3.97
Cc1ccc(C(=O)Nc2cccc(C(F)(F)F)c2)cc1Nc1nc(-c2cccnc2)nc2c1cnn2C,6.61

# Set 5 — method: protein binding microarray; molecule type: double-stranded DNA, one strand shown; sample: in vitro; tested at: not given; relative to: not given; direction: higher = stronger binding
# Target: Histone acetyltransferase KAT6A, winged helix 1, GST fusion (KAT6A, Homo sapiens, UniProt Q92794, residues 1-85)
# Setting: 8-mer, flanks averaged, mean of 2 arrays, mostly near background
# Residues (chain): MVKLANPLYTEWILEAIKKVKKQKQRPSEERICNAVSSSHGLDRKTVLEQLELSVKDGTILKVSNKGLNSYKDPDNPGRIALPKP
Sequence,E-score
GCCACTAC,0.15
TTCCGCAA,0.0582
CATGCGGC,0.255
AAGGTGAT,-0.108
TGACCTAA,-0.199
CATGGTCG,0.0118
CCTCAAAA,-0.0719
CTTGGGGC,0.105

# Mixed results — method: protein-binding microarray; molecule type: hairpin DNA; sample: in vitro; tested at: not given; relative to: not given; direction: higher = stronger binding
# Setting: whole hairpin DNA, median over replicate spots
Sequence,target,median fluorescence [a.u.]
GAGGCCCCGAAGTGAAACGCCTCCTGGCGTTTCACTTCGGGGCCTCACAC,"Interferon regulatory factor 1, DNA-binding domain (IRF1, Homo sapiens, UniProt P10914, residues 1-114)",628
GAGGCCTGGTGTGGTTGGCCTCCTGGCCAACCACACCAGGCCTCACACTC,"Runt-related transcription factor 3, Runt domain (RUNX3, Homo sapiens, UniProt Q13761, residues 53-186)",5140
GAGGCCATGCGAACAACGCCTCCTGGCGTTGTTCGCATGGCCTCACACTC,"FOXO3, forkhead domain (mouse, UniProt Q9WVH4, residues 31-263)",4640
GAGGCCGGCGGACGTCAGCCTCCTGGCTGACGTCCGCCGGCCTCACACTC (5mC at 9),"Cyclic AMP-responsive element-binding protein 1, full length (CREB1, Homo sapiens, UniProt P16220, residues 1-327)",4480

# Excerpt of the above (set 4):
Compound,inhibition [%]
COc1ccc(CN2CCNCC2)c(OC)c1OC,3.54
NCCc1c[nH]c2ccc(C(N)=O)cc12,5.69
CSCC[C@H](NC(=O)[C@H](CC(C)C)NC(=O)CNC(=O)[C@H](Cc1ccccc1)NC(=O)[C@H](Cc1ccccc1)NC(=O)[C@H](CCC(N)=O)NC(=O)[C@H](CCC(N)=O)NC(=O)[C@@H]1CCCN1C(=O)[C@H](CCCCN)NC(=O)[C@@H]1CCCN1C(=O)[C@@H](N)CCCN=C(N)N)C(N)=O,7.28
NC(Cc1ccc(O)cc1)C(=O)O (racemic),2.1
